Results gathered from unrelated publications.
Every numbered part comes from another study and shows a few of its results, in no order. Changes are numbered by the printed parent chain.

Study 1
Target: CCNB3, cyclin fold, Cln2 fusion (human)
Method: yeast growth competition, sequencing
Matrix: yeast
Setting: weak parent motif
Relative to: not given
Direction: higher = stronger binding
Starting sequence: CDKN1A docking peptide (human); SKACRRLFGPVDS
Substitution	normalised enrichment score
SKACRRLFGKVDS [P10K]	0.682
SFACRRLFGPVDS [K2F]	0.757
SKACRRLFIPVDS [G9I]	0.616
SKACRRLFGPSDS [V11S]	0.384

Study 2
Target: Interferon regulatory factor 3, full length, phosphomimetic (IRF3, Homo sapiens, UniProt Q14653, residues 1-427, S386D/S396D/S398D/S402D/T404D/S405D)
Sequence of UniProt Q14653 (whole entry, unmodified, looked up): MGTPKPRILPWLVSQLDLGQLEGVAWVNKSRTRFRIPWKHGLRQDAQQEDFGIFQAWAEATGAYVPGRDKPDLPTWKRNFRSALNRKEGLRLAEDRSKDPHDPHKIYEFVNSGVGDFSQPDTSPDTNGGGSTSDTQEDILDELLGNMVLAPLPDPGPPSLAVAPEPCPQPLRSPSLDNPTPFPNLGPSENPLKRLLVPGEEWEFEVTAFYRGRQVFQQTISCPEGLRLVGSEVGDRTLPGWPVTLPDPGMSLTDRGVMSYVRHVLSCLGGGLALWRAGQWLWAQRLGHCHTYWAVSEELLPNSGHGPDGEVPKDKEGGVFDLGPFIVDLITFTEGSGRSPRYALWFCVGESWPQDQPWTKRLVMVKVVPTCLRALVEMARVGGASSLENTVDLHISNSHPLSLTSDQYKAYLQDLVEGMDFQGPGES
Method: protein-binding microarray
Molecule type: double-stranded DNA, one strand shown
Matrix: in vitro
Concentration: 2540 nM top
Setting: 60-bp whole probe
Together with: salmon DNA 0.4 mg/ml
Relative to: random background probes
Direction: higher = stronger binding
Shared flanks, not repeated: GCCTAGCAC … GTCTTGATTCGCTTGACGCTGCTG
Sequence	fitted relative affinity [z-score]
GACGGTTTCGGTACTGGGGACGTGCTA	7.7
GCCCTTATCCAATCAGAATTGTGCTAG	2.01
GACGGACTGCTTATCCGGACGTGCTAG	0.0686
TTAGGTATCCTTCTCCTTTGGTGCTAG	6.69
CATTTTCTCTTATTCTAACAGTGCTAG	4.25

Study 3
Target: Sal-like protein 4, full length isoform B (SALL4, Homo sapiens, UniProt Q9UJQ4-2, residues 1-616)
Method: universal PBM
Molecule type: double-stranded DNA, one strand shown
Matrix: in vitro
Concentration: not given
Setting: 8-mer, flanks averaged, mean of replicates
Direction: higher = stronger binding
Residues (chain): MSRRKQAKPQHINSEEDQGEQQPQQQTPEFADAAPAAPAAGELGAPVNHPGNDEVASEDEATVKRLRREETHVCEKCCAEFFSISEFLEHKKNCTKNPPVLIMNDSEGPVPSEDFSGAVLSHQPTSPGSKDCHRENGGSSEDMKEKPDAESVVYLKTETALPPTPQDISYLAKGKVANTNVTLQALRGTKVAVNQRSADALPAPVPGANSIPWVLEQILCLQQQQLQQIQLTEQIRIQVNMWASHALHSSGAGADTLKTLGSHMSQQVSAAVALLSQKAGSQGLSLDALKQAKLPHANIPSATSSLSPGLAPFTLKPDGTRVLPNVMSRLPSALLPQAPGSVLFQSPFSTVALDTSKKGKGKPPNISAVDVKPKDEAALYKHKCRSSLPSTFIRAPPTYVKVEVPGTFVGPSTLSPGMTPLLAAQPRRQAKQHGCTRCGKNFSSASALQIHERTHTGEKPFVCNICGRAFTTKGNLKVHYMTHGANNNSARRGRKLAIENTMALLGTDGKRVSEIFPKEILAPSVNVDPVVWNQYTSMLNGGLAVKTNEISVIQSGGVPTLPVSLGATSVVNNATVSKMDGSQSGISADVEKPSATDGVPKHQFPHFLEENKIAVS
Sequence	E-score
ATACAAGA	0.241
ACTCATTC	0.18
GGTCGCGA	-0.212
CCTCTTAC	-0.216
GCCCGCCC	-0.38

Other studies, line by line
Molecule	target	assay	system	setting	how to read	measurement	value
PhoQ, residues 284 288 289 292 302 303 SLANKL	PhoP, residues 12 14 15 18 19 AQALL (Escherichia coli, UniProt P23836)	Sort-seq, measured: YFP reporter	E. coli	PhoQ-PhoP variant library, together with: 10 µM Mg2+	relative to: high Mg2+ state, higher = stronger signaling	fold induction	10.4

Some of these lines once more (study 3):
Sequence	E-score
ACTCATTC	0.18
GGTCGCGA	-0.212
